Measured values pooled from the literature.
A part holds a random share of what one study measured. Substitutions count along the parent as printed.

Block 1
Target: ABI1, truncated, D143A, DHFR fusion (Arabidopsis thaliana)
Technique: DHFR PCA, deep sequencing
Sample: yeast
Setting: methotrexate growth selection, single substitutions
Added: (+)-ABA 4.8 µM
Baseline: wild-type fitted maximum
Reading: higher = stronger binding
Starting sequence: PYL1, truncated, DHFR fusion (Arabidopsis thaliana); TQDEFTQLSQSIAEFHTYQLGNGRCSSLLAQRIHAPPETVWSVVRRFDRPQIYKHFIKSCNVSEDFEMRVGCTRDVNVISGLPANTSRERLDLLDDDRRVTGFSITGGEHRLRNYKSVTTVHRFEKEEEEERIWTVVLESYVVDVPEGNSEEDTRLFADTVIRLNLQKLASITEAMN; partner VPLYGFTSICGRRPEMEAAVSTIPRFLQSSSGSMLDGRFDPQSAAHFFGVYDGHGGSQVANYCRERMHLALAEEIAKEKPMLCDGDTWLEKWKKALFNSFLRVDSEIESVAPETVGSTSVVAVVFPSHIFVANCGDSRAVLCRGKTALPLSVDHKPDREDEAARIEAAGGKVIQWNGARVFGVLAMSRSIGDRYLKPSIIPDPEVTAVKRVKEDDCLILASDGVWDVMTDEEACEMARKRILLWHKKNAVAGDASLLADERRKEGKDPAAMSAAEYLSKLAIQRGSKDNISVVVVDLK
Change	relative binding score [%]
T120K	0.657
A35V	16.1
T120L	-6.7
L94A	0.795
D65S	64.1
I162A	-14.9
W41Q	-0.908
E128N	78.2
L94W	48.2
R24W	2.12
M176Y	51.5
K54T	-14
Q10W	41.8
D153N	4.61
G148W	4.91
E127Q	83.6
M68Q	49
D48T	1.94
T154H	-1.28
T17I	17.8
E64M	55.1
S104G	5.01
L166A	-3.84
E129M	62.7
E109P	0.35

Block 2
Target: Ras GTPase-activating protein-binding protein 1, C-terminal RGG region (G3BP1, Homo sapiens, UniProt Q13283)
Sequence of UniProt Q13283 (whole entry, looked up): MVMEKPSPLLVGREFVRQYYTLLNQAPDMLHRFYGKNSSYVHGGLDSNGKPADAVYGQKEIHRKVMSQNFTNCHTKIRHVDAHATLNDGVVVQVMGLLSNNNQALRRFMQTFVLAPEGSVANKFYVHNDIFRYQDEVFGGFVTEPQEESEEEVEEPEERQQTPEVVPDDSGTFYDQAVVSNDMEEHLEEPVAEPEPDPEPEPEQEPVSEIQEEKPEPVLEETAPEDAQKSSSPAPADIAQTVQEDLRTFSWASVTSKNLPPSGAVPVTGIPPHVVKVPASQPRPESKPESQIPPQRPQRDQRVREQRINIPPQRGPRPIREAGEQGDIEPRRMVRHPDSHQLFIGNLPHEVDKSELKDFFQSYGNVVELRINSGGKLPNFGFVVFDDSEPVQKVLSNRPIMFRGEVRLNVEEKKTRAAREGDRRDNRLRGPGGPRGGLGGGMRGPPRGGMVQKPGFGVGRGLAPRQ
Technique: RNA Bind-n-Seq
Form: RNA
Sample: in vitro
Concentration: 1 µM
Setting: whole 134-nt RNA, ends assumed
Added: 150 mM KCl
Baseline: input library
Reading: higher = stronger binding
Constant ends, left off below: GGGAGUUCUACAGUCCGACGAUC … UGGAAUUCUCGGGUGUCAAGG
Oligonucleotide	log2 enrichment
UGAAAUGUUUUUUUCUCUGUCUUCUUUCAGGUCUUUGUUGAGUAUGCAAAUGCUGGUGAUUCCAAAGCUGCGCAGAAAUUACUGACUGGA	-1.54
AAGUCCUGUGCUACACAUCGUAUGUACCGAAUCGGAAAAAGGUUUGGUUUUUUUGGAAAGUAUUAUGUUACGCCGUUCGGAUCUGCACUU	-1.86
GCAGGAAGUAAAAACAAAUGGAAAUGCUUCGGAUAGUGGCAGGGGUGGGGGUUGCUAAGGAAAGGGUGGGAUGGGAGUGGGUAAAUAGUU	0.417
CCUGUGCUACACAUCGUAUGUACCGAAUCGGGUUUUUUUGGGUUUUUUUGGGUUUUUUUGGAAAGUAUUAUGUUACGCCGUUCGGAUCUG	-1.01
GUCCUGUGCUACACAUCGUAUGUACCGAAUCGGGGUUUGGGGAAAAAAAGGGGAGGGGAAAGUAUUAUGUUACGCCGUUCGGAUCUGCAC	1.9
AGUCCUGUGCUACACAUCGUAUGUACCGAAUCGGUUUUUGGGUUUUUGGGUUUUUGGAAAGUAUUAUGUUACGCCGUUCGGAUCUGCACU	-1.24
UCCUCAAGUCCUGUGCUACACAUCGUAUGUACCGAAUCGGAGGAAAGGAGGAAAGUAUUAUGUUACGCCGUUCGGAUCUGCACUUCCAGC	-1.35
AGUCCUGUGCUACACAUCGUAUGUACCGAAUCGGUUUUGGGGUUUUGGGGUUUUGGGAAAGUAUUAUGUUACGCCGUUCGGAUCUGCACU	-0.596
UCCUCAAGUCCUGUGCUACACAUCGUAUGUACCGAAUCGGGAGGGAGGAGGAAAGUAUUAUGUUACGCCGUUCGGAUCUGCACUUCCAGC	-1.14
CACAGACAACACGCACCCACACAGACACAGAGGGAAGGGGUUGGGAUGGGGACAGGGUGCACAGCAGGGCGGGCUAGGACCCCAGCCCCU	-1.53

Block 3
Target: UBE2L3 UBC core domain (UniProt P68036)
Sequence of UniProt P68036 (whole entry, looked up): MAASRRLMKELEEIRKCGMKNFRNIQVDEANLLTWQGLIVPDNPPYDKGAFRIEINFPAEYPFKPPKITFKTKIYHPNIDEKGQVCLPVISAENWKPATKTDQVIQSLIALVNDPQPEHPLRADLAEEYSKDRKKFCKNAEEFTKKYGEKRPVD
Technique: yeast two-hybrid
Sample: yeast
Setting: mostly zero background
Baseline: not given
Reading: higher = stronger interaction
B1: TRIM37 RING domain (UniProt O94972); chain SVESIAEVFRCFICMEKLRDARLCPHCSKLCCFSCIRRWLTEQRAQCPHCRAPLQLRELVN
B2: TRIM26 RING domain (UniProt Q12899); chain PLRSLEEEVTCSICLDYLRDPVTIDCGHVFCRSCTTDVRPISGSRPVCPLCKKPFKKENIRP
B3: MEX3B RING domain (UniProt Q6ZN04); chain SGLRRKGSRDCSVCFESEVIAALVPCGHNLFCMECANRICEKSEPECPVCHTAVTQAIRIF
B4: RNF2 RING domain (UniProt Q99496); chain SPRSLHSELMCPICLDMLKNTMTTKECLHRFCADCIITALRSGNKECPTCRKKLVSKRSLR
B5: TRIM54 RING domain (UniProt Q9BYV2); chain SMDNLEKQLICPICLEMFSKPVVILPCQHNLCRKCANDVFQASNPLWQSRGSTTVSSGGRFRCPSCRHEVVLDRHGV
B6: TRIM31 RING domain (UniProt Q9BZY9); chain FVNKLQEEVICPICLDILQKPVTIDCGHNFCLKCITQIGETSCGFFKCPLCKTSVRKNAIRF
B7: RNF183 RING domain (UniProt Q96D59); chain EQQGRELEAECPVCWNPFNNTFHTPKMLDCCHSFCVECLAHLSLVTPARRRLLCPLCRQPTVLASGQP
Molecule	lacZ reporter activity
PEELAVNNDDCAICWDSMQAARKLPCGHLFHNSCLRSWLEQDTSCPTCRMSLNIADNNR (AMFR RING domain (UniProt Q9UKV5))	0
B1 (TRIM37 RING domain)	0
B2 (TRIM26 RING domain)	0
LDAASGHPLVCPLCHGQYERPCLLDCFHDFCTGCLRGRATDGRLSCPLCQHQTLVKGPSG (Rnf207 RING domain (UniProt Q3V3A7))	0
YPEEVDDDLICHICLQALLDPLDTPCGHTYCTLCLTNFLVEKDFCPMDRKPLVLQHCKK (LNX1 RING domain (UniProt Q8TBB1))	0
MNDVLENELQCIICSEYFIEAVTLNCAHSFCSYCINEWMKRKIECPICRKDIKSKTYSL (RNF8 RING domain (UniProt O76064))	0
FVKTVEDKYKCEKCHLVLCSPKQTECGHRFCESCMAALLSSSSPKCTACQESIVKDKVF (TRAF3 RING domain (UniProt Q13114))	0
B3 (MEX3B RING domain)	0
B4 (RNF2 RING domain)	0
B5 (TRIM54 RING domain)	0
B6 (TRIM31 RING domain)	0
B7 (RNF183 RING domain)	0
QVQSRTKIEECVVCSDKKAAVLFQPCGHMCACENCANLMKKCVQCRAVVERRVPFI (MIB1 RING domain (UniProt Q86YT6))	0

Block 4
Target: CCND2, cyclin fold, Cln2 fusion (human)
Technique: yeast growth competition, sequencing
Sample: yeast
Setting: weak parent motif
Baseline: not given
Reading: higher = stronger binding
Starting sequence: SCAPER docking peptide (human); SNARRSLNFGGST
Change	normalised enrichment score
SNARRSVNFGGST [L7V]	0.0486
SNARRSLNGGGST [F9G]	-0.334
QNARRSLNFGGST [S1Q]	0.391
SNARKSLNLGGST [R5K F9L]	0.00487
SNARRSLNFGQST [G11Q]	0.427
SAARRSLNFGGST [N2A]	0.606
SNARRSLNFGIST [G11I]	0.331
SNARRLLNFGGST [S6L]	0.658
SNARRSLNLGGST [F9L]	0.333
SNARRSLNFGEST [G11E]	0.159
SNAARSLNFGGST [R4A]	0.316
SNARRDLNFGGST [S6D]	0.191
SPARRSLNFGGST [N2P]	0.459
SQARRSLNFGGST [N2Q]	0.218
SNARRSLNFMGST [G10M]	0.275
SNARRSLNFGWST [G11W]	0.0458

Block 5
Target: RNA binding protein fox-1 homolog 2, RRM domain, GST-SBP tag (RBFOX2, Homo sapiens, UniProt O43251-10, residues 100-194)
Technique: RNA Bind-n-Seq
Form: RNA
Sample: in vitro
Concentration: 365 nM
Setting: natural RNA segment, single round, ends assumed
Baseline: no-protein control
Reading: higher = stronger binding
Constant ends, left off below: GGGAGUUCUACAGUCCGACGAUC … UGGAAUUCUCGGGUGCCAA
Target sequence (chain): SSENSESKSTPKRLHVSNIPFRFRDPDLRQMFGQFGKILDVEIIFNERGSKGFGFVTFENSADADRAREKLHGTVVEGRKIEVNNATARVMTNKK
Oligonucleotide	RBNS enrichment (R)
UGGGGCCCUGUGCCCAGGCCCUGGGCUGGUUGCAGCCCAGCAGUGCCUCCUGCCCCUCCUGGAGUUCAGCUCCUCCUCUGCCGUGGCCCGUGUCUGUCUGGCUCAUCCUU	0.316
GGGAGGGGAAGUUGCAUACAAAGAUAUAUAUCCAAGUUUCCGAAGUAGAGUUUUUAGAUUACUUUUUCAAUGUAAAUAAUGUAUAUUUAAUGUCACAAGAAAUUGUUUUC	0.817
GUUAAGAGGUUCUGUUUCUAAGGGACUGCUGAGUUAGAUUAGUAUAUACGUGGCAGUAGUUCAGCAAUAAUACAUCACAACAUUGCAUCAAUCAUGGGCUCCCACCAAUA	0.989
UCUUGCAGGCUGCCUCUUUUAUAUUGGGUCUCUUGGCCCAACUGCUUCCUUCUUGUUAAUAAGGAGACCUGACGCACACAGCCAGUGGAUUCCCCUCCACCUCGGGAGGG	0.261
UGCAAGUGACAUUCCUGCGAGCUUAGUGAUAUGGUCAAGUCCAUUGCAUCAGUAAUUUAUUUUUUUCUUCUUCUGUCUGUGAUAAUUGACUUGACUGAAUUAUGGCUUGG	1.02
GGAGACCGAGGGCUUUGGACAGGAGUACCGAGGCCGCCCCUCCCACGCCCCCCAGCGCACAUGUAGUCCUGAGUCCUCCCUGCCUGAGAGGCCACUGGCCCCGCAGCCCU	0.263
CUGAGGCCGAUCCGGGACCGGCCUCCUUGCGUCUCCCAUUCCCAAGAUUGUCCCGCCUCUGCCAAUCCCCGCCGUCCUUCCAGCCCACGACCUGCCGCGCCGAGGAGCGG	0.673
UGAGUUUGUCUUAUUGGCGCCUUUUUCCUCAGCUGUCUUCCAAGUAUUAUUUUUACUGUUAAAAAAUUUUUUAAAAAUGUGAAAUGUAAUGUUUUUACAGCAACAAUAUG	0.699
UAAAUGCAAAUACCUUCCUGCCUCAUCCCAGAAAAUGAAAAAUAAUGCUUUUGACACUGUUUCUAGAAUUUUAAAGUUGAAAAAUGAUGAUAUAAUCCAGAAAUUGUUAC	0.616
UGGACAAGUAAUUCCUGGGGUUCUGUCUUUGGUAGCAUCACCAGGGAUAUUUGGGUGGGACAGACAGAAGACACACAGCUGCCUGUUCUCUCCUGCCCAUCAUGUUUGGC	0.409
AGCAUAGAUUUGCAGUUACGGCCUGGAUGCCAGUCGCCAGCCCAGCUGUUCCCCUCGGGAACAUGAGGUGGUGGUGGCGCAGCAGACUGCGAUCAAUUCUGCAUGGUCAC	0.238
CUGCCGCCUCAAUGUGGUUGCAAGGCCGCUGUUCACCCACAGGGCUAAGAGCUAGCGCUGCCGCACCCCAGAGUGUGGGAAGGGAGAGCGGGGCAGUCUCGGGUGGCUAG	0.475
